Results gathered from unrelated publications.
Each line is one published result; not all experiments were run side by side. Numbers after ± are the reported error.
Sequence of UniProt P42330 (whole entry, looked up): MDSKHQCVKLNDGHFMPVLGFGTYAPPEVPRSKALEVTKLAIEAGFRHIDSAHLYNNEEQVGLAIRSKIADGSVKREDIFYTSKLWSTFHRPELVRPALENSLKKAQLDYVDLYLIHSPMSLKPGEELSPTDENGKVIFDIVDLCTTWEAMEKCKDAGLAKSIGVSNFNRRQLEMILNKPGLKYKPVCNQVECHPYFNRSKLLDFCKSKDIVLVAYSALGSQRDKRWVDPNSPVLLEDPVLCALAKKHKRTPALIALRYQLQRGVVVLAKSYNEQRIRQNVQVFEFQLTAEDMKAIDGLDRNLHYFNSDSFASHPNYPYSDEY
Sequence of UniProt P0AEE3 (whole entry, looked up): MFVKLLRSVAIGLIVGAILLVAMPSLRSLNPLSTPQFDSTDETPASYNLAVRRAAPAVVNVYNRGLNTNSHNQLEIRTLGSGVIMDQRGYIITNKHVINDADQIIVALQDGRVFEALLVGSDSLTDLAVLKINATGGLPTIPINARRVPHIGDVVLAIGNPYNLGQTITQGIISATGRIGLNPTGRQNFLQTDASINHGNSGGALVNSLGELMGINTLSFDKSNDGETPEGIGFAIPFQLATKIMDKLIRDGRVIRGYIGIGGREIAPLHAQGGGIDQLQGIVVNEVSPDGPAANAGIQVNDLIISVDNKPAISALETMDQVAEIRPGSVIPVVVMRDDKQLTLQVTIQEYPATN
Sequence of UniProt Q8NKB0 (whole entry, unmodified, looked up): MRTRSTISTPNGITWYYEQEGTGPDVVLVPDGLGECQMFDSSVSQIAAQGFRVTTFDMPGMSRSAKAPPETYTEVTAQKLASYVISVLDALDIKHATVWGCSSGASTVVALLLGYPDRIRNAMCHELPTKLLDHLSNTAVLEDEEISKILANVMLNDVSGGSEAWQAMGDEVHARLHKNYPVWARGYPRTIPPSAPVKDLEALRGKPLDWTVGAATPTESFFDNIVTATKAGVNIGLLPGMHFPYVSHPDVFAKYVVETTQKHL
Sequence of UniProt Q8N695 (whole entry, looked up): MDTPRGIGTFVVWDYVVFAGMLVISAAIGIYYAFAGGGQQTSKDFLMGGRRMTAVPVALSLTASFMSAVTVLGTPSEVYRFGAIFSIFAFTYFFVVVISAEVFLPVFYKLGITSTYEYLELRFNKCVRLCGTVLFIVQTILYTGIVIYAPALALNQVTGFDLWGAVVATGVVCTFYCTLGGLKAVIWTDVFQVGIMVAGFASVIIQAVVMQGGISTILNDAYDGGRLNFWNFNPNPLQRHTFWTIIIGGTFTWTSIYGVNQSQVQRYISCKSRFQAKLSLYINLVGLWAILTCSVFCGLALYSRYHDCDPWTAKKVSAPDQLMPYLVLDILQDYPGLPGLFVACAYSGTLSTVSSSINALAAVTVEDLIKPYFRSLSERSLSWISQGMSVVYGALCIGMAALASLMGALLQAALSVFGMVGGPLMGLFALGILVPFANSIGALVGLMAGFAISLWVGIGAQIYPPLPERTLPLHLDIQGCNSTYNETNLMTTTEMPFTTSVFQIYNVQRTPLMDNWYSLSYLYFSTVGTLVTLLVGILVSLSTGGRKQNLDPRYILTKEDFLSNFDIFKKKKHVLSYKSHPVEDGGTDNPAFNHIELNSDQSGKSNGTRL
Sequence of UniProt O00748 (whole entry, looked up): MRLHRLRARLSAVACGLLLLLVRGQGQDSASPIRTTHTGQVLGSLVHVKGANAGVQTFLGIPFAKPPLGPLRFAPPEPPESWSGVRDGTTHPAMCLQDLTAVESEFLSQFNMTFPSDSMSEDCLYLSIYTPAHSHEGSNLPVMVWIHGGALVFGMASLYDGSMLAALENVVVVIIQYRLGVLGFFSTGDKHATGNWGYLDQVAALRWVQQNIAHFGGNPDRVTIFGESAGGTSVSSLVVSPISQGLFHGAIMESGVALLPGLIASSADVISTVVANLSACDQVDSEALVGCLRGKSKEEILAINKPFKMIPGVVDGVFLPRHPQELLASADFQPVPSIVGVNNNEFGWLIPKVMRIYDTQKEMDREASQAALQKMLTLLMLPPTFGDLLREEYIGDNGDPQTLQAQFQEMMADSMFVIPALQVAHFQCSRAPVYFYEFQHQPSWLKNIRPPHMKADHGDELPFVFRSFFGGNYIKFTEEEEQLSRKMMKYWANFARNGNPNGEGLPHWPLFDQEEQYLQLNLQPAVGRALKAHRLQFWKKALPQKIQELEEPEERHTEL

Substance	target or system	assay	system	conditions	quantity	result
Cc1cc(=O)oc2cc(NC(=O)[C@H](CCCN=C(N)N)NC(=O)[C@@H]3CCCN3)ccc12	DPAP1 (Plasmodium falciparum, UniProt Q8IIJ9)	hydrolysis, substrate, fluorogenic dipeptide, native enzyme	–	pH 6.0, 25 °C, together with: 30 mM chloride	Km	84 ± 9 µM
Nc1ncnc2c1ncn2[C@@H]1O[C@H](COP(=O)(O)OP(=O)(O)OP(=O)(O)O)[C@@H](O)[C@H]1O	Tyrosine--tRNA ligase 1 (tyrS1, Pseudomonas aeruginosa, UniProt Q9HWP3)	substrate, ATP-PPi exchange	–	TyrRS-S, co-substrate 2 mM	Km	204 µM
CC(=O)SCCNC(=O)CCNC(=O)[C@H](O)C(C)(C)COP(=O)(O)OP(=O)(O)OC[C@H]1O[C@@H](n2cnc3c(N)ncnc32)[C@H](O)[C@@H]1OP(=O)(O)O	2-isopropylmalate synthase (leuA, Neisseria meningitidis serogroup B, UniProt Q9JZG1)	substrate, DTP-coupled	–	pH 7.5, 25 °C, wild-type enzyme, together with: α-ketoisovalerate 300 µM	Km	39 ± 5 µM
CN[C@@](C)(C[18F])C(=O)O	–	–	SCID mouse A549 xenograft, spleen	60 min, post injection	tissue uptake	12 ± 1.9 %ID/g
Cc1cc(=O)oc2c(F)c(OP(=O)(O)O)c(F)cc12	PTPN11 (Homo sapiens, UniProt Q06124, E76Q)	phosphatase activity, substrate	–	0.05 nM enzyme, pH 7.2, E76Q mutant basal no peptide	Km	890 ± 50 µM
Cc1c(C)n2c(CCl)c(C)c(=O)n2c1=O	protein BstA (Staphylococcus aureus, UniProt A0A0H2XDW9)	substrate	–	pH 7.0, 37 °C, together with: 220 nM enzyme	Km	61 ± 26 µM
CCC1OC1CC(=O)OC(C#N)c1ccc2cc(OC)ccc2c1 (stereo not drawn)	Karenia brevis epoxide hydrolase	substrate	–	pH 7.0	Km	161 µM
DNRDGNVYYF	Serine endoprotease DegS (degS, Escherichia coli, UniProt P0AEE3)	refers to: RseA	peptide	23 °C, together with: OMP peptide	Km	750 ± 120 µM
COC1=C(OC)C(=O)C(C)=CC1=O	Type II NADH dehydrogenase (Plasmodium falciparum, UniProt Q8I302)	enzyme activity, substrate	–	together with: co-substrate 500 µM	Km	104 ± 6.6 µM
c1ccc([C@@H]2CO2)cc1	Karenia brevis epoxide hydrolase	substrate	–	pH 7.0	Km	6240 µM
CN(CCCC(=O)c1cccnc1)N=O	AKR1C3 (Homo sapiens, UniProt P42330)	substrate	–	–	Km	1150 ± 300 µM
CCCCCCCC(=O)Oc1cc(C(=O)O)ccc1[N+](=O)[O-]	phospholipase A2 PhTX-III (Bothrocophias hyoprora)	substrate	–	pH 8.0, 37 °C	Km	4430 µM
O=[N+]([O-])c1ccc(Cl)c([N+](=O)[O-])c1	GST1 (Clonorchis sinensis, UniProt A1BNE5)	substrate	–	–	Km	2280 µM
CC(C)=CC(=O)SCCNC(=O)CCNC(=O)[C@H](O)C(C)(C)COP(=O)(O)OP(=O)(O)OC[C@H]1O[C@@H](n2cnc3c(N)ncnc32)[C@H](O)[C@@H]1OP(=O)(O)O	Rhodopseudomonas palustris LCC	substrate, coupled ATPase	–	pH 7.5, together with: ATP 1.5 mM, KHCO3 40 mM	Km	1100 ± 100 µM
O=C(O)CCl	SLC5A8 (Homo sapiens, UniProt Q8N695)	substrate	–	–	Km	177 ± 16 µM
CCCCCCCCCCCC(=O)OC1CC(C)(C)N([O])C(C)(C)C1	Cocaine esterase (CES2, Homo sapiens, UniProt O00748)	–	–	–	Km	38.3 ± 5.13 µM
C[C@H]1CCCC(=O)CCC/C=C/c2cc(O)cc(O)c2C(=O)O1	zhd101 (Clonostachys rosea, UniProt Q8NKB0, D133K)	substrate, HPLC	–	10 min, pH 5.5, 37 °C, 1% acetonitrile	Km	78400 ± 4900 µM
OCCSSCCO	A438L (Paramecium bursaria Chlorella virus 1, UniProt Q98489)	–	–	–	Km	2100 µM
COc1ccc2cc(C(C#N)OC(=O)CC3OC3c3ccccc3)ccc2c1 (stereo not drawn)	Karenia brevis epoxide hydrolase	substrate	–	pH 7.0	Km	13.6 µM
CC(C)C(=O)C(=O)O	2-isopropylmalate synthase, heterodimer with wild-type (leuA, Neisseria meningitidis serogroup B, UniProt Q9JZG1, R470Q)	enzyme activity, substrate, DTP-coupled	–	R470Q heterodimer, one chain, together with: acetyl-CoA 300 µM	Km	37 ± 3 µM
C/C1=C2/N[C@H]([C@H](CC(N)=O)[C@@]2(C)CCC(=O)NC[C@@H](C)OP(=O)(O)O[C@H]2[C@@H](O)[C@@H](n3cnc4cc(C)c(C)cc43)O[C@@H]2CO)[C@]2(C)N=C(/C(C)=C3N=C(/C=C4N=C1[C@@H](CCC(N)=O)C\4(C)C)[C@@H](CCC(N)=O)[C@]\3(C)CC(N)=O)[C@@H](CCC(N)=O)[C@]2(C)CC(N)=O.[Co]	Corrinoid adenosyltransferase CobA (btuR, Salmonella typhimurium, UniProt P31570, F91A)	–	–	–	Km	5 ± 1 µM

A few entries again:
Substance	target or system	assay	system	conditions	quantity	result
Cc1c(C)n2c(CCl)c(C)c(=O)n2c1=O	protein BstA (Staphylococcus aureus, UniProt A0A0H2XDW9)	substrate	–	pH 7.0, 37 °C, together with: 220 nM enzyme	Km	61 ± 26 µM
CC(C)=CC(=O)SCCNC(=O)CCNC(=O)[C@H](O)C(C)(C)COP(=O)(O)OP(=O)(O)OC[C@H]1O[C@@H](n2cnc3c(N)ncnc32)[C@H](O)[C@@H]1OP(=O)(O)O	Rhodopseudomonas palustris LCC	substrate, coupled ATPase	–	pH 7.5, together with: ATP 1.5 mM, KHCO3 40 mM	Km	1100 ± 100 µM
